Assay results from different studies.
Every numbered part comes from another study and shows a few of its results, in no order. Several values in a cell are separate wells, animals, samples, runs or records.
Chain of UniProt P49760 (whole entry, looked up): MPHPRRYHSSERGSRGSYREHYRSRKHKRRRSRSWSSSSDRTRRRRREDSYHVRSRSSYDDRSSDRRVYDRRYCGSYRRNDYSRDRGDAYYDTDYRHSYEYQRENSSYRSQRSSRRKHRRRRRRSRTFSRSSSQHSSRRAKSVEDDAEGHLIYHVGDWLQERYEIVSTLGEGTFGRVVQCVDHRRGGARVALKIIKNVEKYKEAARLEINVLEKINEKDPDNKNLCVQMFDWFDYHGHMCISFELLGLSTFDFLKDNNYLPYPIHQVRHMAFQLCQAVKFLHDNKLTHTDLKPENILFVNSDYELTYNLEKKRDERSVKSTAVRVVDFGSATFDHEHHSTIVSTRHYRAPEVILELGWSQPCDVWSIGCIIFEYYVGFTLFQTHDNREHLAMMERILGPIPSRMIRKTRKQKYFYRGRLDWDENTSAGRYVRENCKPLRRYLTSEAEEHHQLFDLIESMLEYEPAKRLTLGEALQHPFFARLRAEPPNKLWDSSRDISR
Chain of UniProt Q9HAZ1 (whole entry, looked up): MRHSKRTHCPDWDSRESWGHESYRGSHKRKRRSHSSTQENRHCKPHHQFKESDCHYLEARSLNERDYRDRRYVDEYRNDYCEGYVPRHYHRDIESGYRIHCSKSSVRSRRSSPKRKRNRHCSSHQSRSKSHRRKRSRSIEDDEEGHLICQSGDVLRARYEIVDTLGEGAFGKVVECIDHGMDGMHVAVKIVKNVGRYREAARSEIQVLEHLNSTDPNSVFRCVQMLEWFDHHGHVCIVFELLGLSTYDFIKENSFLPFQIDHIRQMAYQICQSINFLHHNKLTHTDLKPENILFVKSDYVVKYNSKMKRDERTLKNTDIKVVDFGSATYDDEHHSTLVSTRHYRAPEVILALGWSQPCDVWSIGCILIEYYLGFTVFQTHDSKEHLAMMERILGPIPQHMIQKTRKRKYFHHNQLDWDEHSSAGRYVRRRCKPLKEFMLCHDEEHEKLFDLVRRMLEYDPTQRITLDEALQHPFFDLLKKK
Chain of UniProt P33981 (whole entry, looked up): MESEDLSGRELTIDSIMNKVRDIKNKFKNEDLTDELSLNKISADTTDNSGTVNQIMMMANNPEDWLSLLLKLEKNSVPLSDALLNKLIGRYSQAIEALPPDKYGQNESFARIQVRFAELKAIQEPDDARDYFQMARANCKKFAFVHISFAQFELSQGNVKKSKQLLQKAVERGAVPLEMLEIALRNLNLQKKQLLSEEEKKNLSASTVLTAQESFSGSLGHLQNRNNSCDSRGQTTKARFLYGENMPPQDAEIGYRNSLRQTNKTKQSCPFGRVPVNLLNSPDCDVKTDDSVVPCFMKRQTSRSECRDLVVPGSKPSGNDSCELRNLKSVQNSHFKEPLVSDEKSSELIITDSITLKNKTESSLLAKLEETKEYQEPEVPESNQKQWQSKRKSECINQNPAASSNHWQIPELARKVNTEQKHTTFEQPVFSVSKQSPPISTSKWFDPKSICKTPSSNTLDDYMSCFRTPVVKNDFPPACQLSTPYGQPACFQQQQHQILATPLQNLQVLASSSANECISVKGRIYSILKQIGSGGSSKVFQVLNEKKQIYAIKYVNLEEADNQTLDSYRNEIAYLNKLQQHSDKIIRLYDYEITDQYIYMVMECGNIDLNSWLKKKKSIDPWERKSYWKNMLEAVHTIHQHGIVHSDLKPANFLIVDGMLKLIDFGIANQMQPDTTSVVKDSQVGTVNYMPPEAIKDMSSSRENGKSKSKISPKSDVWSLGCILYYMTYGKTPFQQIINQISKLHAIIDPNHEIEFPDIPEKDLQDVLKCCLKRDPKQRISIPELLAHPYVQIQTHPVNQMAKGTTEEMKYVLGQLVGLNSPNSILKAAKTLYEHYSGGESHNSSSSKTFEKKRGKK
Chain of UniProt Q8WXR4 (whole entry, looked up): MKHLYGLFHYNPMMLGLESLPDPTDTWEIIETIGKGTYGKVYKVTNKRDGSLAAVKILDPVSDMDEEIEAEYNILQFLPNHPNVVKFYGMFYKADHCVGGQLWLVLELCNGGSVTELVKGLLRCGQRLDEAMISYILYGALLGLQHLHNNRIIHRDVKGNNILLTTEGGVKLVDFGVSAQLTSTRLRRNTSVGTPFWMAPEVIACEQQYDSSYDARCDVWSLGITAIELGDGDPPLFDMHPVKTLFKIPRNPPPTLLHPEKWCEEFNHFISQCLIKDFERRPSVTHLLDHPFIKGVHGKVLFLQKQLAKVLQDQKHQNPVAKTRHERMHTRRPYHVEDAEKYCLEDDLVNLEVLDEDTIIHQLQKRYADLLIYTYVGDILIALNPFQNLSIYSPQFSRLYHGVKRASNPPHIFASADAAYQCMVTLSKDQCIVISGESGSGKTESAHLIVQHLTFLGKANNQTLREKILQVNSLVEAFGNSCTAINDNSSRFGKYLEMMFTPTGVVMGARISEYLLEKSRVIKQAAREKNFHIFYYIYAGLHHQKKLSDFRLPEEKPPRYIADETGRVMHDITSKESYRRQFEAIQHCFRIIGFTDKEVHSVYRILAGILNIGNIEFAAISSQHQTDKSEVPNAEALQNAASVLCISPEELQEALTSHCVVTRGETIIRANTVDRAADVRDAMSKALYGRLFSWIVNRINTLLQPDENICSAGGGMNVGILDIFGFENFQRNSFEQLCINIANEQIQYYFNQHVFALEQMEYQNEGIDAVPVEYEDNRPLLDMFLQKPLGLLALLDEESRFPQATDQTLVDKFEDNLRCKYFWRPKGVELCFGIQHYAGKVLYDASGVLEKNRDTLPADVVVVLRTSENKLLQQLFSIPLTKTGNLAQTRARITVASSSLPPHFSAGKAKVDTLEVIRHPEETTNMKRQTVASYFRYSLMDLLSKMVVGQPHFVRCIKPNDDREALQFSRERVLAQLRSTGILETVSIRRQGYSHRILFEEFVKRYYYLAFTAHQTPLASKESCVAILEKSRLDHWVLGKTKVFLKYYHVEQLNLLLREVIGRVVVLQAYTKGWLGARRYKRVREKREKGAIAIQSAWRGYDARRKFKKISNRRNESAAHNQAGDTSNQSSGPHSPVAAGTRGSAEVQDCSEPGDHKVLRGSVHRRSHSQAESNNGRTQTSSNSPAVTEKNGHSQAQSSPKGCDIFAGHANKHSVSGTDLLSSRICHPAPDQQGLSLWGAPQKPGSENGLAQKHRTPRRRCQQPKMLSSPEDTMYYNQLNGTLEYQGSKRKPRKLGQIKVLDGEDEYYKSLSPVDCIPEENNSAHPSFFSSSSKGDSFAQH
Chain of UniProt Q8N4C8 (whole entry, looked up): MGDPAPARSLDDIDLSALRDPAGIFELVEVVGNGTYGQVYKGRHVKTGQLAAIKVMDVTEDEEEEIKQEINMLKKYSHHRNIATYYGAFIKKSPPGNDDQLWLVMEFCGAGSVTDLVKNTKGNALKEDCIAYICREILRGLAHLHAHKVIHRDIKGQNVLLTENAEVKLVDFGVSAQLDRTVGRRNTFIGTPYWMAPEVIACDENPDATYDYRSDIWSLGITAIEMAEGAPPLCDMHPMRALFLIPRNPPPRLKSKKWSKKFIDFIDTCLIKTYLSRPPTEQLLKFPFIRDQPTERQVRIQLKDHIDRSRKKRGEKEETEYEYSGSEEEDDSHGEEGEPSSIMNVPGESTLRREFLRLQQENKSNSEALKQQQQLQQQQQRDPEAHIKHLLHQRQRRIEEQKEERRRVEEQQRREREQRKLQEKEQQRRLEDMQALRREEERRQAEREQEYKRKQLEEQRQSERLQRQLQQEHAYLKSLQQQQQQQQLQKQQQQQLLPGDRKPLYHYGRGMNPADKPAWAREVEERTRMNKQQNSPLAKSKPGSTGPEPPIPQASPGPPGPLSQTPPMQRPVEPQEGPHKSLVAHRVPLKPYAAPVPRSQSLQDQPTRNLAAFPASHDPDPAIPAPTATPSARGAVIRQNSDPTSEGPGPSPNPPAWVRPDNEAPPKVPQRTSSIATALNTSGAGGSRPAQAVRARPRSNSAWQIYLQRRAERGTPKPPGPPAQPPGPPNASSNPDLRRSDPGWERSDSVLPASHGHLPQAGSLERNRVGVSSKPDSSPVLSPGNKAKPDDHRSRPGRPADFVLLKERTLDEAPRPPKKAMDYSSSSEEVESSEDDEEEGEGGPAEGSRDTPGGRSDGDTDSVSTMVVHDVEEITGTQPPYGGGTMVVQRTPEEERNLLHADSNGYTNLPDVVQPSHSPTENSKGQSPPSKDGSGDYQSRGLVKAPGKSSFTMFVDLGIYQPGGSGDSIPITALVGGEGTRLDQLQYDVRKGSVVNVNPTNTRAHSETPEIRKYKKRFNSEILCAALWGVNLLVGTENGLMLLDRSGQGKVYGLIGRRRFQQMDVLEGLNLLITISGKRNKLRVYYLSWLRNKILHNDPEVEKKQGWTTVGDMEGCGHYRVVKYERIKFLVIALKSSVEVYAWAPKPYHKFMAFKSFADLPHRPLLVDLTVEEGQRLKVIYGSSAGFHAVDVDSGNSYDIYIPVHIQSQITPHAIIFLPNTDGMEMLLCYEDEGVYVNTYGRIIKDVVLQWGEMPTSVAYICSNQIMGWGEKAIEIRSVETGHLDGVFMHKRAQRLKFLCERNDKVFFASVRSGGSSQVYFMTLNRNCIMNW
Chain of UniProt Q38829 (whole entry, looked up): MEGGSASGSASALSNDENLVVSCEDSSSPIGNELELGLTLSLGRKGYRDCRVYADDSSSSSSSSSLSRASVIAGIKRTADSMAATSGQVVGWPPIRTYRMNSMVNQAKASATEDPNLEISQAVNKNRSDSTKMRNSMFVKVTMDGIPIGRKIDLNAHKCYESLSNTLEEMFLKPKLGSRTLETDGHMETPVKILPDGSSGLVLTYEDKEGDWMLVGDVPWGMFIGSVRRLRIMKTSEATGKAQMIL
Chain of UniProt Q9ZSY8 (whole entry, looked up): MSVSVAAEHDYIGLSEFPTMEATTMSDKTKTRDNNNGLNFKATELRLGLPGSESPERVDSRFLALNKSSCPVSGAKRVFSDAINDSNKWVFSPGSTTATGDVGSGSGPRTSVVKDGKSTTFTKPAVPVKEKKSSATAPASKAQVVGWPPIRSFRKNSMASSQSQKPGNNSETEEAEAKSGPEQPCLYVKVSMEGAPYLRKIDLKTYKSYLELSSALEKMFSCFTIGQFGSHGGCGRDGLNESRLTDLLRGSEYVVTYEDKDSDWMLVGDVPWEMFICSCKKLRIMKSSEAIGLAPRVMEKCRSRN

Series 1
Target: RNA binding protein fox-1 homolog 2, RRM domain, GST-SBP tag (RBFOX2, Homo sapiens, UniProt O43251-10, residues 100-194)
Technique: RNA Bind-n-Seq
Molecule type: RNA
Medium: in vitro
Concentration: 365 nM
Setting: natural RNA segment, single round, ends assumed
Relative to: no-protein control
Reading: higher = stronger binding
All sequences stand within: GGGAGUUCUACAGUCCGACGAUC … UGGAAUUCUCGGGUGCCAA
Target sequence (chain): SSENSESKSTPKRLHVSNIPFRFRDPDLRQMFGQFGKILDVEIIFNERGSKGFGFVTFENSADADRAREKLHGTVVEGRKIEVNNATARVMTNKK
| Sequence | RBNS enrichment (R) |
| --- | --- |
| CAGACAGACACACUUUUCCACCAGUGUAUUUGAAUUUUAGACCAGUGACCCUGUUUUGUGGCAUUCAUGCAAAACAUGCUGAGGGCUUUGUUCAUCUGGUCAUCGUGUCC | 0.651 |
| ACUAAACAGUGGAUUCCUCUCGUGUUACAGUUUUGAGUGAAUUAUUAAAGAAGUUAAAAUGCAAUAACUUUUUGGUCUCCUGUCUCAUUUUGAAUGAAUUUGAUGUGUUU | 1.25 |
| GGUGACUGAUGUGGCCGAAGCAGGUGUCCAGGCAGGUAGGCUGCAGCCAGGAGCUCCCUGGCACCGCAGGACCUCGUGGUACUCUUGCCUUAGAUUUUACACACACUCCA | 0.351 |
| UCAGACGGGUUCCGGGGGCCUCAGAGGUGAUCCGGGAGUCGAGCAGCACAACAGGGAUGGUCGUCGGCAUUGUGGCUGCUGCCGCCCUCUGCAUCUUGAUCCUCCUGUAC | 1.68 |
| CUUACCAUUUCCUUGUUUGAGUAAGAGAGUGAAUGGUUCUGAGUGUUUAGGAAGGAUUUGCUUGCUUGCAGCAGAAGUUCUAGGAAAAGCAGGCACCUCCCAAAUAUCUU | 0.318 |
| ACUUCAGCUUCACAGAUUCAACAUUUCACUGAGGGAAGCCCUGAAAACAGGACAAAGAGCUCUGCAGCAUCCUCAUGCCCUAUUACAUUCUCAGCCCAGUGGGCCUCAGC | 1.01 |
| UUCCUGGGGGCGUGGCCAAGCCCUCCUCUUCCCAGAAUUGGCCCGGGGCCUUCAAUUUACGUUCUUUACACUACGGGGACUGGGGUCGUCUUUGCCCACGUCCCGACAAC | 0.55 |
| AAUGCAUGUUUUGAGAUGUUUGGAGAUUCAGCAAUUCUGUCUUCAUUGCUCCAGGAUCUGGUAUACUGUUCUCAUAAAACUGAGAGGAGAAAAAAAGUGAAAGAAAGCAG | 15.1 |

Series 2
Structure (SMILES): C[C@@H]1CN(c2cc(-c3n[nH]c4ccc(OC5(C)CC5)cc34)ncn2)C[C@H](C)O1
| target | assay | test system | EC50 |
| --- | --- | --- | --- |
| MAP3K5 (Homo sapiens, UniProt Q99683) | target engagement in cells, BRET |  | 12 µM |
| CLK2 (Homo sapiens, UniProt P49760) | target engagement, NanoBRET | live cells | 0.59 µM and 2.14 µM and 3.25 µM |
| TTK (Homo sapiens, UniProt P33981) | target engagement, NanoBRET | live cells | > 50 µM |
| MAP3K14 (Homo sapiens, UniProt Q99558) | target engagement in cells, BRET |  | > 50 µM |
| CLK4 (Homo sapiens, UniProt Q9HAZ1) | target engagement, NanoBRET | live cells | 25.7 µM and 41.2 µM and 4.03 µM |

Series 3
Sequence: B1 (IAA2)
Technique: two-hybrid
Reading: higher = firmer interaction
B1: IAA2 (Arabidopsis thaliana, UniProt P49678); chain MAYEKVNELNLKDTELCLGLPGRTEKIKEEQEVSCVKSNNKRLFEETRDEEESTPPTKTQIVGWPPVRSSRKNNNSVSYVKVSMDGAPYLRKIDLKTYKNYPELLKALENMFKVMIGEYCEREGYKGSGFVPTYEDKDGDWMLVGDVPWDMFSSSCKRLRIMKGSDAPALDSSL
| partner | conditions | how to read | positive tests |
| --- | --- | --- | --- |
| ARF14 497-605 (Arabidopsis thaliana, UniProt Q9LQE8) |  | relative to: out of 4 tests | 0 |
| IAA27 (Arabidopsis thaliana, UniProt Q9ZSY8) |  | relative to: out of 4 tests | 4 |
| IAA30 (Arabidopsis thaliana, UniProt Q9M1R4) | weak activation fusion | relative to: out of 4 tests | 2 |
| IAA11 (Arabidopsis thaliana, UniProt Q38829) | weak activation fusion | relative to: out of 4 tests | 0 |
| IAA31 (Arabidopsis thaliana, UniProt Q8H174) |  | relative to: out of 2 tests | 0 |
| IAA19 (Arabidopsis thaliana, UniProt O24409) |  | relative to: out of 4 tests | 2 |

Series 4
SMILES: CO[C@H]1C[C@@H]2CC[C@@H](C)[C@@](O)(O2)C(=O)C(=O)N2CCCC[C@H]2C(=O)O[C@H]([C@H](C)C[C@@H]2CC[C@@H](O)[C@H](OC)C2)CC(=O)[C@H](C)/C=C(\C)[C@@H](O)[C@@H](OC)C(=O)[C@H](C)C[C@H](C)/C=C/C=C/C=C/1C
Read-out: enzyme activity
Mode: inhibitor
Concentration: 0.5 µM
Relative to: control
| target | remaining activity [%] |
| --- | --- |
| Myosin-IIIb (MYO3B, Homo sapiens, UniProt Q8WXR4) | 106 |
| MARK4 (Homo sapiens, UniProt Q96L34) | 99.1 |
| PLK3 (Homo sapiens, UniProt Q9H4B4) | 96.2 |
| GRK4 (Homo sapiens, UniProt P32298) | 96.1 |
| KDR (Homo sapiens, UniProt P35968) | 98.1 |
| MINK1 (Homo sapiens, UniProt Q8N4C8) | 100 |
| Cyclin-dependent kinase 9, with cyclin K (CDK9, Homo sapiens, UniProt P50750) | 106 |
| TLK2 (Homo sapiens, UniProt Q86UE8) | 94.4 |
| DCLK2 (Homo sapiens, UniProt Q8N568) | 99.2 |
| Cyclin-dependent kinase 1, with cyclin A (CDK1, Homo sapiens, UniProt P06493) | 91.9 |
